# Experimental data pooled from the literature.
# Numbered parts are unrelated; each lists some results of a single study. Positions count from the first letter of the parent shown.

# Set 1
# Target: CCNB1, cyclin fold, Cln2 fusion (human)
# Method: yeast growth competition, sequencing
# Sample: yeast
# Notes: weak parent motif
# Relative to: not given
# Direction: higher = stronger binding
# Parent: CDC6 docking peptide (human); TLKGRRLVFDNQL
Change,normalised enrichment score
R5D,0.182
L2D,-0.268
L7T,-0.459
L7D,0.0453
L2Y,0.0767
R5K,-0.365
T1F,-0.646
D10K,0.233
F9N,0.385
K3H,-0.144
N11M,0.133
Q12R,0.0332
N11T,0.498
F9V,-0.577
R6T,-0.00399
V8Y,0.646
F9M,0.359

# Set 2
# Target: Interferon regulatory factor 7, full length, phosphomimetic (IRF7, Homo sapiens, UniProt Q92985, residues 1-503, S471D/S472D/S475D/S476D/S477D/S483D/S484D/S487D)
# Sequence of UniProt Q92985 (whole entry, unmodified, looked up): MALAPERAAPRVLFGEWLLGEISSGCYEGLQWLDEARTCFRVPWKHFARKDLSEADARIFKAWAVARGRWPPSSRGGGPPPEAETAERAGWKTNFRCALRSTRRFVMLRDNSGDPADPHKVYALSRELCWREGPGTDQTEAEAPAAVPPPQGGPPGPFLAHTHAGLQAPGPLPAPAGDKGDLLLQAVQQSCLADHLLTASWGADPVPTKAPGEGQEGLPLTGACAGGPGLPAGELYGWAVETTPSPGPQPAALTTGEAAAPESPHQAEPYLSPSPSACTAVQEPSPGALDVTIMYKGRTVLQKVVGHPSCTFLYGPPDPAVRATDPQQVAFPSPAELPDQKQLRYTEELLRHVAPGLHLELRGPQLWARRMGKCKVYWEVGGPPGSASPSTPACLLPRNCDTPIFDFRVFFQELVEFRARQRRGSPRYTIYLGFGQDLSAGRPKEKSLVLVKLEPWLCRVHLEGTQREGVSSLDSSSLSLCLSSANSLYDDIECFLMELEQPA
# Method: protein-binding microarray
# Form: double-stranded DNA, one strand shown
# Sample: in vitro
# Tested at: 2200 nM top
# Notes: 60-bp whole probe
# Together with: salmon DNA 0.4 mg/ml
# Relative to: random background probes
# Direction: higher = stronger binding
# Shared flanks, not repeated: GCCTAGCAC … GTCTTGATTCGCTTGACGCTGCTG
Oligonucleotide,fitted relative affinity
GACGGTTTCGGTTTCGCGACGTGCTAG,14.6 z-score
TCATTTTTTTTTTTTTGACTGTGCTAG,2.14 z-score
GATGGTTCCCTTTTCCTGACGTGCTAG,2.75 z-score
TTTACTTTCTGAATGCTCCCGTGCTAG,6.19 z-score
TTAGGTTTCGACACTGGGTCAGTGCTA,2.19 z-score
GACGGTATCCACACTGGGGACGTGCTA,-0.317 z-score
GACGGTATTCTTTTCCTGACGTGCTAG,1.09 z-score
TTAGAAATGGGGTTTCGATTAGTGCTA,2.29 z-score
TTAGATCTCAGTTTCGAATAGTGCTAG,2.36 z-score
TTAGATTTCGGGTTTCCATTAGTGCTA,4.71 z-score
TTAGGACCGCTTTTCCTTTAGTGCTAG,1.71 z-score
TTAGGTTTCGGTGTCGGTTAGTGCTAG,4.22 z-score
TCACTAATCTCACTCTGACTGTGCTAG,0.932 z-score
GACGATCTCAGTCTCGAGAGGTGCTAG,0.0213 z-score
GACGATCTCAATATCGAGACGTGCTAG,0.313 z-score
GACGGTTTCGGTTCCGGTACGTGCTAG,11.5 z-score
GACGGTTTCCTTCTCCTGACGTGCTAG,3.04 z-score
TGAGGTATCGGGTATCGGTTAGTGCTA,0.152 z-score
CCTTGTCCCCTCAGGTATGGGTGCTAG,0.0166 z-score
TCAAAAATGCCCTTTTGGACTGTGCTA,-0.17 z-score
AACGATCTCAGTCTCGAGACGTGCTAG,0.383 z-score
TTAGATATCGGGCATCGATTAGTGCTA,-0.51 z-score
GACGGTTCCGACTATCGGGACGTGCTA,0.176 z-score
TCAGTTTCTCCTTTCCAACTGTGCTAG,5.33 z-score
TCACTTGTGTTTATTGTACTGTGCTAG,1.46 z-score

# Set 3
# Target: RNA binding protein fox-1 homolog 2, RRM domain, GST-SBP tag (RBFOX2, Homo sapiens, UniProt O43251-10, residues 100-194)
# Method: RNA Bind-n-Seq
# Form: RNA
# Sample: in vitro
# Tested at: 365 nM
# Notes: natural RNA segment, single round, ends assumed
# Relative to: no-protein control
# Direction: higher = stronger binding
# Residues (chain): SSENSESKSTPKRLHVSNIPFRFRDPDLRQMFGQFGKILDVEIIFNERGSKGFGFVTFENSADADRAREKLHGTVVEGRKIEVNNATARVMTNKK
Oligonucleotide,RBNS enrichment (R)
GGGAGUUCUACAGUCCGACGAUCAAUACUUGGAAGGCAGUAAUUGUGAGUGACACCUCAGUUCAUCAACCCCUUAAUAAUAUCAGCUUAAUUUUAAUGACAACUAAAUAUGCUGAAGUGAGGAUUUAGUAUUUUGGAAUUCUCGGGUGCCAA,0.531
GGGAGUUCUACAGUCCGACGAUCUAAAGAGAAAAGUACAAGACAGAAAUCUUCUAGCACUUUGUAAACACAGUGAAUAACCUCUUGGAGUAUUUUUGGCUUUAUAUAAAACAAGGUUUUUAAUUGUAAAGUAUUGGAAUUCUCGGGUGCCAA,0.645
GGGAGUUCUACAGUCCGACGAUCUCUCUCUUGUCACAUGGAAUCUACAUGUGUUUGAACUAUUGCUUUAGGGUUUAAAAUAGGGGAGCCUGUGGUGGCCUGGUGCACAGGGCUAGAACGAGAGUGCCUCCCCUUGGAAUUCUCGGGUGCCAA,0.903
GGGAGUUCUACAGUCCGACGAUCAAAAAAUAAUAAAGAAGUGAGACUAUUAGACAAAGUAUUUAUGUAAUUAUUUGAUAACUCUUGUAAAUAGGUGGAAUAUGAAUGCUUGGAAAAUUAAACUUUAAUUUAUUUGGAAUUCUCGGGUGCCAA,1.45
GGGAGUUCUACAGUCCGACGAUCGCAGCCCCUCUUCAGAGCCCCUGUAAAUGCUAUCGCAGCCUGAGUCCUGCCGCCUUCCAGUUCCUUGGUGUCCCGUGCACCCCUUCUGUCUGUCCCCUUUCAUGGCUGUGUGGAAUUCUCGGGUGCCAA,0.51
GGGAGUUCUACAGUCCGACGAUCCAAAAGAUGUUUGUUUCUUAUUCAUUCCACUUUUGUCUCCUGGGAUCCCUUCUGUAGCCUAAAGUAUGGCUGGGAAAUGGACUUGAGAAGAUUGGCUUGAAUUAGAUCAUUGGAAUUCUCGGGUGCCAA,0.837
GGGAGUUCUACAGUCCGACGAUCAGGUUGUUUCAGACAGACAGCUUUAUGCAGCCCUUCUCAUUUAGGGUCCUCUCUUCUCUUCCCCGGGGAGAGAAUAAGGGCUCACUAAGCAGAGGAACCCACUUAGAGGAUGGAAUUCUCGGGUGCCAA,0.286
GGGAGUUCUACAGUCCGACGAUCCUUCAGUUUUCUUUUCUACAAUAAAGUGUUCGUUAAAUUUGGUUAAAAACAAAACAACAAACUUGAUUCCUGGGCUGUGGCAAGUUUUCUUUGUCCUCAAAACUGGCAGAUGGAAUUCUCGGGUGCCAA,0.505
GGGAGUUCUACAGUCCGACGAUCGACUGGACAUCUUGGUCUUUUUCUCAGGUCUGAAAGGAACCAUUUUUUGGUAUGAUAAAGACCCCAAAAUGCCUUUUUUUUAAAGUGGGGAGAGGGAGGAGGUACGCCGGUGGAAUUCUCGGGUGCCAA,0.51
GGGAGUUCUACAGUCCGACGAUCAACCACCAUGCCUAUAGCCACAGCAACCCAUUCUUUUGGAGGUUUUAUAGUUCUCCAUUUGUCUCAUGUUCCGAAUGUGAAGUGUCCUAAUGUGUAUUAAAGUCAGAAAAUGGAAUUCUCGGGUGCCAA,0.917
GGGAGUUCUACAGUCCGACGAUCGUUGAUGCUUCUUGGUUGGCAAGACUUGGGUGUAGACAUGAAACCAUCUUACUAAAAGCGUCUUAAAAUGACCAAUUCCAGAAUCAAGCGUAUUCCGUUUUCUUCCUGCAUGGAAUUCUCGGGUGCCAA,1.04
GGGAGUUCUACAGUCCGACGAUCAAAUCUACCAGCUCUUGGAUGAAGAUAGAACAGUGCUUUUCCAGAGUGGGAAGGAAGGGGUUGAGACGCGUGCUUUGAGAGCCUGUGAGGCUGCUCCGUCCUUGCCAGCUUGGAAUUCUCGGGUGCCAA,0.336

# Set 4
# Target: TAR DNA-binding protein 43, full length, His tag (TARDBP, Homo sapiens, UniProt Q13148, residues 1-414)
# Method: RNA Bind-n-Seq
# Form: RNA
# Sample: in vitro
# Tested at: 20 nM
# Notes: 6-mer, flanks averaged, single round
# Together with: 150 mM KCl
# Relative to: input library
# Direction: higher = stronger binding
Oligonucleotide,6-mer enrichment (R)
UUACUA,0.571
CCUGAC,0.666
UACCUU,0.596
ACGUUG,0.75
AACGGU,0.805
AGAAAC,0.662
UUAGGC,0.746
UUGCGG,1.5
UGGUAC,0.79
CAGUGA,0.848
GGGCGG,9.34
CACCAC,0.716
UUCGUU,0.547
CGAUUG,0.756
GUAGAC,0.913
UACAGC,0.65

# Set 5
# Target: ABI1, truncated, D143A, DHFR fusion (Arabidopsis thaliana)
# Method: DHFR PCA, deep sequencing
# Sample: yeast
# Notes: methotrexate growth selection, single substitutions
# Together with: (+)-ABA 4.8 µM
# Relative to: wild-type fitted maximum
# Direction: higher = stronger binding
# Parent: PYL1, truncated, DHFR fusion (Arabidopsis thaliana); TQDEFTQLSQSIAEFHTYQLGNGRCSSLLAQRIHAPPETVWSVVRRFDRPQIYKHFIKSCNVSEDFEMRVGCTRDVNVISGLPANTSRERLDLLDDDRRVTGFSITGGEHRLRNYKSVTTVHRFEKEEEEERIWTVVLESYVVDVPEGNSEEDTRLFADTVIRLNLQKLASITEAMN; partner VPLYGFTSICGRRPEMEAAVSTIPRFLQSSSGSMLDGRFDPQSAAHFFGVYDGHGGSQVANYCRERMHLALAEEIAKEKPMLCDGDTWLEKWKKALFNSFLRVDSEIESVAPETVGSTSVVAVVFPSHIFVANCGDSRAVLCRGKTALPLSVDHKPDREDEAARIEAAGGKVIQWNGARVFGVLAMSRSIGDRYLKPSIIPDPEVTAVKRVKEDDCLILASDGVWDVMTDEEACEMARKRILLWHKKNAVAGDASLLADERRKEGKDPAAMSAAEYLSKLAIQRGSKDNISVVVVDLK
Change,relative binding score [%]
R98C,15.9
G23A,42.9
G71P,0.982
E151F,60
E89R,-0.0939
L169T,-0.163
D3F,60.1
I57Q,-9.02
T106V,97.1
D144T,17.2
P36I,11.1
S117Y,2.48
A175W,44.5
H34Y,69.1
E125N,75.8
E4S,56.4
W134D,54.7
L166N,-16.4
P83F,9.75
G81L,-2.92
Q2T,71.1
P50A,-5.79
Q31D,-13.4
E152F,48.5
N85R,87.7

# For quick reference, copied from above (set 5):
Change,relative binding score [%]
A175W,44.5
H34Y,69.1
E125N,75.8
E4S,56.4
W134D,54.7
L166N,-16.4
P83F,9.75
G81L,-2.92
Q2T,71.1
P50A,-5.79
